# Assay results from different studies.
Compound,assay,test system,setting,AUC(0-tau)
Cl.[2H]C([2H])([2H])CC(=O)c1cnc(NC(=O)C2CC2)cc1Nc1cccc(-c2ncn(C([2H])([2H])[2H])n2)c1OC,geometric mean,human,"oral, 20 mg once daily, day 1, fasted, liquid, multiple dose",1130 ng·h/mL
CC(=O)N1CCC(Nc2cc(C(=O)NC[C@H](O)CN3CCc4ccccc4C3)ncn2)CC1,,"human, plasma","oral, 300 mg, week 3 day 1, geometric mean",5830 ng·h/mL
COC[C@@H](c1ccc(C(F)(F)F)cc1)N1CCN(C2(C)CCN(C(=O)c3c(C)ncnc3C)CC2)C[C@@H]1C,,human,"oral, 15 mg once daily, steady state, population PK, together with: ritonavir",3390 ng·h/mL
Cc1cc(/C=C/C#N)cc(C)c1Nc1ccnc(Nc2ccc(C#N)cc2)n1,,"human, haemodialysis patients, plasma","oral, dose not given, steady state, fixed-dose combination",1700 ng·h/mL
CN1CC[C@@H](NC(=O)Nc2ccc(C#N)cc2)C[C@@H]1c1nc2ccccc2[nH]1,,human,"oral, 100 mg, cycle 1 day 21, given alone",15400 ng·h/mL
N#CCNC(=O)c1ccc(-c2ccnc(Nc3ccc(N4CCOCC4)cc3)n2)cc1,,"healthy human volunteers, plasma","oral, 100 mg once daily, day 7, fed, given alone",1660 ng·h/mL
CCOc1c([C@H](C)n2nc(C)c3c(N)ncnc32)cc(Cl)c(F)c1[C@@H]1CNC(=O)C1,,human Hodgkin lymphoma patients,"oral, 20 mg, day 15",17.9 µM·h
Cc1noc(C)c1-c1cc(C(O)(c2ccccn2)c2ccccn2)c2nc(C3CC3)[nH]c2c1,,"human patients, fasted, plasma","oral, 3 mg once daily, cycle 1 day 15, together with: enzalutamide once daily",765 ng·h/mL
O=C(O)CCC(=O)O.[2H]C([2H])([2H])Oc1cc(C)c2[nH]ccc2c1CN1CC[C@@H](C2CC2)C[C@H]1c1ccc(C(=O)O)cc1,,"human, plasma","300 mg once daily, day 1, multiple ascending dose, geometric mean",51900 ng·h/mL
Nc1ncn([C@@H]2O[C@H](CO)[C@@H](O)[C@H]2O)c(=O)n1,,human,"intravenous, 100 mg/m^2, cycle 1 day 1, given alone",1200 ng·h/mL
Cc1ncnc2c1ccn2[C@@H]1C[C@H](Oc2cc(C(F)F)c(F)c3c2CNCC3)[C@@H](O)[C@H]1O,,human,"oral, 6 mg twice daily",281 ng·h/mL
C[C@@H]1CCO[C@H]2Cn3cc(C(=O)NCc4ccc(F)cc4F)c(=O)c(O)c3C(=O)N12,,"human, haemodialysis patients, plasma","oral, dose not given, steady state, fixed-dose combination",78100 ng·h/mL
CC(C)NC(=O)COc1cccc(-c2nc(Nc3ccc4[nH]ncc4c3)c3ccccc3n2)c1,,"human, male, fed, plasma","oral, 200 mg once daily, day 8, geometric mean, together with: raltegravir",13000 ng·h/mL
CCN1CCN(Cc2ccc(Nc3ncc(F)c(-c4cc(F)c5nc6n(c5c4)[C@H](C)CCC6)n3)nc2)CC1,,"human, Phase Ib patients, plasma","300 mg, multiple doses, mean, together with: fulvestrant",7770 ng·h/mL
Cc1cc(C)c(CNC(=O)c2cc(Cl)c3c(c2C)O[C@@](C)([C@H]2CC[C@H](N(C)C)CC2)O3)c(=O)[nH]1,,"human, NHL patients, plasma","oral, 200 mg/day, cycle 1 day 15, once daily",14200 ng·h/mL
CCCCOCCOc1ccc(-c2ccc3c(c2)/C=C(/C(=O)Nc2ccc([S@@+]([O-])Cc4cncn4CCC)cc2)CCCN3CC(C)C)cc1,,"human, mild impairment matched controls, plasma","oral, 150 mg, day 1, geometric mean",5670 ng·h/mL

# For quick reference, copied from above:
Compound,assay,test system,setting,AUC(0-tau)
CN1CC[C@@H](NC(=O)Nc2ccc(C#N)cc2)C[C@@H]1c1nc2ccccc2[nH]1,,human,"oral, 100 mg, cycle 1 day 21, given alone",15400 ng·h/mL
Cc1cc(C)c(CNC(=O)c2cc(Cl)c3c(c2C)O[C@@](C)([C@H]2CC[C@H](N(C)C)CC2)O3)c(=O)[nH]1,,"human, NHL patients, plasma","oral, 200 mg/day, cycle 1 day 15, once daily",14200 ng·h/mL
N#CCNC(=O)c1ccc(-c2ccnc(Nc3ccc(N4CCOCC4)cc3)n2)cc1,,"healthy human volunteers, plasma","oral, 100 mg once daily, day 7, fed, given alone",1660 ng·h/mL
